Assay results pooled from the literature.
Every numbered part comes from another study and shows a few of its results, in no order.

Study 1
Target: RING finger protein unkempt homolog, zinc fingers 1-6, GST-SBP tag (UNK, Homo sapiens, UniProt Q9C0B0, residues 30-357)
Technique: RNA Bind-n-Seq
Form: RNA
Matrix: in vitro
Tested at: not given
Notes: RNA with constant flanks, human-mouse chimeric sites, ends assumed
Baseline: input RNA pool
Reading: higher = stronger binding
Residues (chain): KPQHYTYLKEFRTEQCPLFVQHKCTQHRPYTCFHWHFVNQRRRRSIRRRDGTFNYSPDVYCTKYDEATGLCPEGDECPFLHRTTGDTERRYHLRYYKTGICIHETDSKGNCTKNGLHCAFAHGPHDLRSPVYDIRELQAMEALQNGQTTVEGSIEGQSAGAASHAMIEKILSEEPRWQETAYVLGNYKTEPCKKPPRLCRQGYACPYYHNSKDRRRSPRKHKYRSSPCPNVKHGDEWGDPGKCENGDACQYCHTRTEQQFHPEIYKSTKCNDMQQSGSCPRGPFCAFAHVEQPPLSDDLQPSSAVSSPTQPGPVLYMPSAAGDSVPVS
| Oligonucleotide | bound/input enrichment |
| --- | --- |
| GGGAGUUCUACAGUCCGACGAUCCGAGACAAGACAUCCAGGAACAUGCGAGGCUCCCGGAUGAAUGGGUUUCCAAGUCCCACUCACAGCGCCCACUGUAGCUUCUACCGAACCAGAACCUUGCAGGCACUGAGUAAUGAGAAGCAACAGAGGAUUGAGCAUCA | 0.0648 ratio |
| GGGAGUUCUACAGUCCGACGAUCUGUAGUUUCUUGAUUUAGUGGCUGGGCCUUUUCUUUCUUUCCUUUAGGAAAAGCCUAAAGAUUAGGUUGUAAGAAAAACAGAAGCCAUGUUUCGAAGACCUGUGUUACAGGUAUUUCGUCCAACAGAGGAUUGAGCAUCA | 0.249 ratio |
| GGGAGUUCUACAGUCCGACGAUCAAAGCCCAAGUAUUUUGAAAAAACUCGAACAGAUUUGUCAAGGGUAACCAGCUUGGAGUCUAGCAACUUGCCAAUGUGUUUACCAAUCUGGGGGCUUGUUUUUCUUUCCCUUCCUUAAAUCAACAGAGGAUUGAGCAUCA | 0.297 ratio |
| GGGAGUUCUACAGUCCGACGAUCUUCAAAGAAAAGGGCAGCUGUGUCAUUUCAUAAGUAACUCUGGGGGAGGGAAAUUCUGUUCUUUUGUUUAAUUUUCCCCCAAAUGAAGCCAAAGUGUUUUUUAAGGAACUGAGAAAAAAUCAACAGAGGAUUGAGCAUCA | 0.348 ratio |

Study 2
Target: Sal-like protein 4, full length isoform B (SALL4, Homo sapiens, UniProt Q9UJQ4-2, residues 1-616)
Technique: universal PBM
Form: double-stranded DNA, one strand shown
Matrix: in vitro
Tested at: not given
Notes: 8-mer, flanks averaged, mean of replicates
Reading: higher = stronger binding
| Oligonucleotide | E-score |
| --- | --- |
| CATGATTA | 0.331 |
| CAGACAAG | -0.00194 |
| TACCGTAA | 0.126 |
| ATATCCGC | 0.158 |
| GTGAGAAA | 0.117 |

Study 3
Target: Histone acetyltransferase KAT6A, winged helix 1, GST fusion (KAT6A, Homo sapiens, UniProt Q92794, residues 1-85)
Technique: protein binding microarray
Form: double-stranded DNA, one strand shown
Matrix: in vitro
Tested at: not given
Notes: 8-mer, flanks averaged, mean of 2 arrays, mostly near background
Baseline: not given
Reading: higher = stronger binding
Construct (chain): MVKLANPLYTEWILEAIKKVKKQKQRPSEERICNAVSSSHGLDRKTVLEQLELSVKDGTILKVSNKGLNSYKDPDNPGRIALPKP
| Oligonucleotide | E-score |
| --- | --- |
| AACTGGAA | -0.22 |
| CTCCGGAG | 0.0328 |
| GCTATTCC | -0.0257 |
| AAGCTAGG | -0.111 |
| AGGCACTC | -0.0933 |
| CCGTTACG | 0.379 |
| AAGACATA | -0.012 |

Mixed results
| Substance | target | assay | system | setting | scale | measurement | value |
| --- | --- | --- | --- | --- | --- | --- | --- |
| PhoQ, residues 284 288 289 292 302 303 AGGCYF | PhoP, residues 12 14 15 18 19 STWGI (Escherichia coli, UniProt P23836) | Sort-seq, item: YFP reporter | E. coli | PhoQ-PhoP variant library, together with: 10 µM Mg2+ | baseline: high Mg2+ state, higher = stronger signaling | fold induction | 7.78 |

Some of these lines once more (study 3):
| Oligonucleotide | E-score |
| --- | --- |
| CTCCGGAG | 0.0328 |
